Published values pooled from the literature.
A part holds a random share of what one study measured.

Sample 1 — method: RNA Bind-n-Seq; molecule type: RNA; matrix: in vitro; tested at: 365 nM; baseline: no-protein control; direction: higher = stronger binding
Target: RNA binding protein fox-1 homolog 2, RRM domain, GST-SBP tag (RBFOX2, Homo sapiens, UniProt O43251-10, residues 100-194)
Notes: natural RNA segment, single round, ends assumed
All sequences stand within: GGGAGUUCUACAGUCCGACGAUC … UGGAAUUCUCGGGUGCCAA
Construct (chain): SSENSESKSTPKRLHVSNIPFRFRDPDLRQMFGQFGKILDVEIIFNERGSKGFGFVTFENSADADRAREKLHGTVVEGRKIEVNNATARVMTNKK
Strand | RBNS enrichment (R)
AAUAGAAAUAAAAAGAUCUUCAGCCAGGCCUUUCUGAAGGAGUUAUUCUGCUAAAAAUGGUCUUAGUUGUCUGAAAAGCCAGCUCUUGAACCUCUUCACAACAGUAUCAA | 0.306
UGAAUGGAACUCAUUAGCUGUGUGCAUAUAAAAAGAUCACAUCAGGUGGAUGGAGAGACAUUUGAUCCCUUGUUUGCUUAAUAAAUUAUAAAAUGAUGGCUUGGAAAAGC | 0.636
CGGGUUCAAGCGAUUCUUCUGCCUCAGCCUCCCAAGUAGUUGGGAUUACAGACAUGUGCCACCACGCCUGGCUAAUUUUUGUAUUUUUAGUAGAGACAGGGUUUCACCAU | 0.337
UAGGUCCAGCCUGUGUAUGUUCUUUUGUUGGUUUGGAUUCUGAGAGUCCCAAGAGUCCAGGUUAGUUGACUCUGUUGGUCUUCCUGUGGAGUUCCUAUCCCCUUUGAGGC | 0.698
AUUGCAAAGAUGUAAAAUAUGCCAGAUGUGUGUGAGUUGGAAAUCAAAAAAAGAAAAAUAAAAUAUGAAAGAAUUCACUGAUUGUCUCACAAGUCACUGGAUGCCUCGGU | 3.17
CCCUUCUGAGGCCACAGGCAGGGCAGCUUAGUUCACCGCAGUCCGUACCUUGGAUAAGGGGCCUCACUUGAACCCAUCUUGAAUACCCUUUGCCAGGUGCUUAUUUAAGU | 0.285
GAAAGAUAAAGGCUUGUGAACAAAGAAAGCUAAGCUGUUGUACAUAUUGUAGUUGGCUGUGCAUGGUACAAAUUUAUUAAUAUGAAGAAAUGCAAAAUGUAUUGCUUUUG | 3.86
UGCUGCCGAAGAACCCCAUGGUCCUCCCACAAUACCAAAGCUUCCCUGUUUCCCCUUCUGCCUCCGUUUCCCCAGCAGGACCACACUGCCUGUGGGACAAAGGACAGGAU | 0.508

Sample 2 — method: universal PBM; molecule type: double-stranded DNA, one strand shown; matrix: in vitro; tested at: 600 nM; direction: higher = stronger binding
Target: Sal-like protein 4, full length isoform A (SALL4, Homo sapiens, UniProt Q9UJQ4, residues 1-1053)
Chain of UniProt Q9UJQ4 (whole entry, looked up): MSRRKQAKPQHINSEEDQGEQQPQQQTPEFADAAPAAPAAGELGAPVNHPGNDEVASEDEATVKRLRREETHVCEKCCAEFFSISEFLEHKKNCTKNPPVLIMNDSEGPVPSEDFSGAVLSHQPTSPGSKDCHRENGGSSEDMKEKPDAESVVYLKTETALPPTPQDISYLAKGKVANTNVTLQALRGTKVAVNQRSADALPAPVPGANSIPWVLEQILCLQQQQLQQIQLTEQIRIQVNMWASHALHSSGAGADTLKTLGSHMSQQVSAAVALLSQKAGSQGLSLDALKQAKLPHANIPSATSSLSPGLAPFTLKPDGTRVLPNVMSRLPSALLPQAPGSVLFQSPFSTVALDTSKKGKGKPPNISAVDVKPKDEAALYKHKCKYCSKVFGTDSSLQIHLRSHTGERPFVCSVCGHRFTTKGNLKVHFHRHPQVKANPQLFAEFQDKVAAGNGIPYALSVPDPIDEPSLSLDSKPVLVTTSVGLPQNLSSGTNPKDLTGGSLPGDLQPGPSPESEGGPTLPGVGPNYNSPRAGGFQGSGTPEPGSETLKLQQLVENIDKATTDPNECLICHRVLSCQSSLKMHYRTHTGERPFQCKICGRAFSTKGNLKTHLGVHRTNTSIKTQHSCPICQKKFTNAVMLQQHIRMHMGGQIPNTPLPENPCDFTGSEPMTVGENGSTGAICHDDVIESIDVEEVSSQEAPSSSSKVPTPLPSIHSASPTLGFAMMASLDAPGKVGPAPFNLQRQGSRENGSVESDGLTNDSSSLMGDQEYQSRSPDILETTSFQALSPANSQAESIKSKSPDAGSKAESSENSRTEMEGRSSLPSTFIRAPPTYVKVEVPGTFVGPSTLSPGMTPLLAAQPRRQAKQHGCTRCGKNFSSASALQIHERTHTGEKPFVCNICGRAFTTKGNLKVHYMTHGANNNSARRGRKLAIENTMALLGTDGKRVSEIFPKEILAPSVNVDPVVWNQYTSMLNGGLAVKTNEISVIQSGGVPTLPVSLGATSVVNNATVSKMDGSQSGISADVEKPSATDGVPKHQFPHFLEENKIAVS
Notes: 8-mer, flanks averaged, mean of replicates
Strand | E-score
ACCATTCG | 0.0311
GTGGCAAC | -0.109
GACTTACC | -0.0286
GCAGAATA | 0.145
GGGTAAAA | 0.111
AGGAGAAA | 0.0586
AAAACGGC | 0.0328
TAAAGGGA | 0.0644
AGAGCACC | -0.349
AAGTTTTA | 0.267
ACATGGAC | 0.0704
ACGTCGAG | -0.13
AAGCACCG | -0.239
ATACCAAG | 0.154
GGGGTAAA | 0.0538
CACCGCGA | -0.365
GCTAATCA | 0.172

Sample 3 — method: protein-binding microarray; molecule type: double-stranded DNA, one strand shown; matrix: in vitro; tested at: 0.8 µM; notes: whole 60-bp probe, no competitor; direction: higher = stronger binding; all sequences stand within: … GTCTTGATTCGCTTGACGCTGCTG
Target: Centromere-binding protein 1, full length, N-terminal tag (CBF1, Saccharomyces cerevisiae, UniProt P17106, residues 1-351)
Chain of UniProt P17106 (whole entry, looked up): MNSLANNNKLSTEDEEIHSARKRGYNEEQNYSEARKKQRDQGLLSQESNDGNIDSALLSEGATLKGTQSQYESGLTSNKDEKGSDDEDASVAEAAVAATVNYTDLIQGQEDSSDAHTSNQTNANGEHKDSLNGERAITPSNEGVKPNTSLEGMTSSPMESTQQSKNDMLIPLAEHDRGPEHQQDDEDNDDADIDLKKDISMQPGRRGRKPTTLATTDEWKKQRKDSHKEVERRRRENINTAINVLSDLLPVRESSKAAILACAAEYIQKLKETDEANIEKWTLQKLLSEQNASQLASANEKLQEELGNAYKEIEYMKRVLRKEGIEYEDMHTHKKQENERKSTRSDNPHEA
Strand | fluorescence intensity [a.u.]
CTAACTTTGCGGGATCACCCGCATAAAGTCGTCTTC | 494
GAATAACTTAAAGGTGATGAAATGTGGCGTTCTTAG | 487
CTAATTTATCTTTTTCACATGAGATATTTTTACTTC | 600
CTAACGTTGCACAACCACGCAATAGAAGATAATTTC | 553
GAATTTTCATATATGCACATGTAAATATATGCGTAG | 734
GAACACGGCCTAATCCTCATGATTCATTTTATATAG | 526
CTATCCGTGTTTCATCACCCACATTATAGTACATTC | 533
CTATCGAGAAAAGAAAACGTGAAAAAATAAGCTTTC | 704
CTATAATCTAAGCGCATCACCAACATTTTCTGGTTC | 513
GAAGCGAGCAGAGAGTGGGTGATGTCAGAGAACTAG | 536
CCTAACTACTATAAGCACGTGAGATAGCTTCGTACA | 5600
CTACAGACCTGTCGTCACCATAGCAACCAAAAATTC | 527
GAAGGCAACGAGGACCACCTGAGTGTCGCCACTTAG | 527
GAAAATGGTTCAACTCACCCGAATGGAAATAACTAG | 533
CTAACACTTGAAACGCACGATTTTTTCAAGAATTTC | 523
CTAAAAATATGTCAGACCACCACCAATGTTAACTTC | 690
CTATCTTGGCGTTCACACGTGGGTTTAAAAAGGTTC | 3050
CTATTCTTCCTATTTCTGATGCATTGAACAGATTTC | 577
CTAACCCCATACTTACGCGTGGTTTAATTCTATTTC | 558

Sample 4 — method: RNA Bind-n-Seq; molecule type: RNA; matrix: in vitro; tested at: not given; baseline: input RNA pool; direction: higher = stronger binding
Target: RING finger protein unkempt homolog, zinc fingers 1-6, GST-SBP tag (UNK, Homo sapiens, UniProt Q9C0B0, residues 30-357)
Chain of UniProt Q9C0B0 (30-357, looked up): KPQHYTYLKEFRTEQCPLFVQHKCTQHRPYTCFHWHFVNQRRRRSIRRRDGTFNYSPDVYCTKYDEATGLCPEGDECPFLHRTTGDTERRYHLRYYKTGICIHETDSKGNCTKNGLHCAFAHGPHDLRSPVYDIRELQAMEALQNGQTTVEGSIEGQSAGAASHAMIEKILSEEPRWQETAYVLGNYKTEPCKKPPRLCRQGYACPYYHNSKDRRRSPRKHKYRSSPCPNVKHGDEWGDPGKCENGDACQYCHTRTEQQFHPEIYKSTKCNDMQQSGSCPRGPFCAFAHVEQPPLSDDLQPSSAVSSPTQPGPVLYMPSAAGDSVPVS
Notes: RNA with constant flanks, human-mouse chimeric sites, ends assumed
All sequences stand within: GGGAGUUCUACAGUCCGACGAUC … CAACAGAGGAUUGAGCAUCA
Strand | bound/input enrichment [ratio]
UUAUCCAAGACUCAACGAAAGACUCCAACCGUUAUUCAUAAACAUUACCAAAUACAUCGGAUUCGACAUUUUUAUAUGAGAAAAGUCAAAUUUACUCAACAGAAUUACCAUGACAGACUG | 0.464
GAAACAUUUAAAUUUAAAGAAGCUGUUGUUUUAGGGAGUACGGACUUCCUAGAAGAUGAUAUAGAGAAAAUUGUAGAAGAACUGGGGAAAGAGUAUAAGGGCAACGCCUACCAUCUGAUG | 1.75
UCUGGUCACACUCGUGUAUAUGGUGUGUGCUUUGUGGAUACUUCACUGGGCAAGUUUUUCAUCGGCCAGUUUUCGGAUGACCGCCACUGUUCCAGAUUUAGGACGCUAGUGGCUCACUAU | 0.228
AAAGAGUGGAUAGAAUGUGCACACGGGAUCGGUGGGACCCGGGCGAAAAAGGAGUGCAAGAUAGAGUUCGAUGACUUCGAAGAGUGCUUGCUUCGGCACAAAACGAUGAGGCGAAUGCAU | 0.285
GCCACCAAUUCCAGCCAACAUGACCCUUGCUGCCUACAAAGAGAAGAUGAAGGAGCUCCCGCUGGUGUCUCUGUUCUGCUCCUGCUUCCUGGCCGAUCCCCUGAAUAAGUCGUCCUACAA | 0.35
ACCAUUUUCGCGGUUCAAGGUUUUGUGGUAGUUCACUUACGGUAUUAAAUUAUUAUUCUGCUUAGCUUAUAAUAAGGAUAAUUGCAUUUAAAGAGGUGAUCACUGAAUACUCUGAAACUU | 0.756
UCUUAACUUAUUCAUUUAACUUAUUUUUAUAGCUAGAUAAAUAUUGUUAGUCUUAGACAAUAGCUCACAUCUUUACAGAAGCAUGCCCUCCCUGUCCAUUGGGCCCAUAACAUGACCCAG | 9.38
CUGAGGAUACCACUGAAGAGACCUUAAAAGGAGUCAUUUGACGGCUCGUUCGUGCAAGAAUAGUCACUGAUCGGGAAACUGGUUCUUCCAAAGGGUUUGGUUUUGUAGACUUUAAUAGUG | 0.811

Sample 5 — method: protein binding microarray; molecule type: double-stranded DNA, one strand shown; matrix: in vitro; tested at: not given; baseline: not given; direction: higher = stronger binding
Target: Histone acetyltransferase KAT6A, winged helix 2, GST fusion (KAT6A, Homo sapiens, UniProt Q92794, residues 85-181)
Notes: 8-mer, flanks averaged, mean of 2 arrays, mostly near background
Target sequence (chain): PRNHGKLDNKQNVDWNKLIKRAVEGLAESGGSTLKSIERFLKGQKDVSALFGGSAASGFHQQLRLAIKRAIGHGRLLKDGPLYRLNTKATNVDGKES
Strand | E-score
ACAATACA | -0.0399
CGCCTCTA | 0.0636
GTTTGGCA | 0.00469
AACGGGCC | 0.146
CAGTCACA | -0.0823
CTAAGCAC | 0.194
AGGGTAAC | -0.164
ACATACCC | -0.075
CAGAGGCC | -0.0981
CCGATCGG | 0.226
ATGACCGG | -0.138
CCGCTTCA | 0.0983
ATGAGAAG | -0.0207
AGATTACG | -0.0131
ATTGTCAG | 0.0699
ACAGCCGT | 0.0315
AGCGAGCC | 0.0742
CAGCCCTG | -0.181
AAACTCTC | 0.175
AACGACGG | 0.0821
ACATTAAT | 0.0309

Excerpt of the above (sample 3):
Strand | fluorescence intensity [a.u.]
CTATCCGTGTTTCATCACCCACATTATAGTACATTC | 533
CTATCGAGAAAAGAAAACGTGAAAAAATAAGCTTTC | 704
CTATAATCTAAGCGCATCACCAACATTTTCTGGTTC | 513
GAAGCGAGCAGAGAGTGGGTGATGTCAGAGAACTAG | 536
CCTAACTACTATAAGCACGTGAGATAGCTTCGTACA | 5600
CTACAGACCTGTCGTCACCATAGCAACCAAAAATTC | 527
GAAGGCAACGAGGACCACCTGAGTGTCGCCACTTAG | 527
GAAAATGGTTCAACTCACCCGAATGGAAATAACTAG | 533
